Experimental data gathered from unrelated publications.
Every numbered part comes from another study and shows a few of its results, in no order.

Series 1
Target: RNA binding protein fox-1 homolog 2, RRM domain, GST-SBP tag (RBFOX2, Homo sapiens, UniProt O43251-10, residues 100-194)
Method: RNA Bind-n-Seq
Molecule type: RNA
Matrix: in vitro
Concentration: 365 nM
Setting: natural RNA segment, single round, ends assumed
Relative to: no-protein control
Direction: higher = stronger binding
Constant ends, left off below: GGGAGUUCUACAGUCCGACGAUC … UGGAAUUCUCGGGUGCCAA
Target sequence (chain): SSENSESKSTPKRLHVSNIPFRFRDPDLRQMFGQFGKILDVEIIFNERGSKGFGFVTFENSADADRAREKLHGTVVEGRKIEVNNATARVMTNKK
Strand | RBNS enrichment (R)
AUAAAAGUAUUAGAGGCAGCGUUUCUCUGAUACAGAGAGGCCUGUCCACAAGAAGCAUGGGCACCCAGCCAAACUUGAACCUGGAAGGGAGGGUUCCCGGCCUGCAGGUG | 1.59
ACAUGUCUGAGAUAACCAAGGUGAUUCAGGAUUUGAUCAAAAGAAGUCUAGUAAGAAUUAAUUACACAGAAGCCUCCUUUCAUUUCUAUGGGCCAAACAAAGGCCAUGGA | 0.323
AAAAGGUAAGCACAUUUAGAAUUUUGUUCUUGACAGUUAACUGACUAAUCUUACUUCCACAAAAUAUGUGAAUUUGCUGCUUCUGAGAGGCAAUGUGAAAGAGGGAGUAU | 0.607
GAGGAUGUGUUUUGCACGUCUUGCUAUUUGAGCAUGCACAGCUGCUUGUCCUGCUCUCUUCAGGAGGCCCUGGUGUCAGGCAGGUUUGCCAGUGAAGACUUCUUGGGUAG | 0.655
GUCUGAUGAGCAUUUCUGUUGCUUCCAUCAGCCAGAGCUCUGCCAAAGGCCCCGCAUCCCCAUCCUAGGAGUGCCCUAGAGACAAUUAAAUGUCCAUUCCUCUGGUGCUG | 0.508
UGACAGUAUUAUGUAAUUUUUAGCGUGGGUAGAUGGGAGUGUCGCUUGUAUGUUACCAUACAGCUGACAUGUAUUUUUUGUCUAUUCUUUAUUAUCUUAGUAGUUUCAUG | 0.289
AGUUAUGUAUUUUUUACAUUAGUGCCAAGUAUAUAGAAGGAUGACAGCAAAAACAGUGCCUCUUUGUGCACAAUCCUUUUAAAGUAGCAUUCUUACUUGUUAGAAAUGUA | 0.442
CACCCCCCGGCAUCCUGGAGAGCAUGAGCUGUUUCCAAAAUCGGAUUCUCAGCUGUCACUGUUUCUUCCAAAAGUUGCUAUUUAUACAAGGGUAUCAGCUUUUCCUUAGA | 4.3
UUUCUGACCUUUGGCCUGUUCUAGUGCCUAAUCUCCAUUAUUAAAUACUGGCUUCUCCCAACUUCCUAAAAGGAAGUUUCCUCUUUAACUUAGGGAAGCCUUACCUACCA | 0.236
GGUAGGAUCACUCGCAAGGCCUUGUGAAGGAGUCUUACCUAAAACGAAAGAAAUAUCAGGGACUUUUGUUGACUAUUUACAACUCAGUUUUACAUUUAAAUUCAGGCAGU | 0.277
CUGUCCCGUCUGUGGCAGAGGUUUCUGGCCAGAGGACCCUUCCCGGUUCAUCUCCCCUCAUCUUCUUUUCCCAACUGUGAAAAUUAGUUCUCCGGUCCCAGCUUCCUGCU | 0.477
CCUUGUUUUCCUUUUUCUUUCAGUUUUGGACUUUGGACCCUGCACAGCCGUUCCCCAGGGUCUGAAACUUACCUGUCACGCACAGGUAGAGCAGUGCUAGCUAGCAUUAC | 0.457

Series 2
Target: Histone acetyltransferase KAT6A, winged helix 1, GST fusion (KAT6A, Homo sapiens, UniProt Q92794, residues 1-85)
Method: protein binding microarray
Molecule type: double-stranded DNA, one strand shown
Matrix: in vitro
Concentration: not given
Setting: 8-mer, flanks averaged, mean of 2 arrays, mostly near background
Relative to: not given
Direction: higher = stronger binding
Target sequence (chain): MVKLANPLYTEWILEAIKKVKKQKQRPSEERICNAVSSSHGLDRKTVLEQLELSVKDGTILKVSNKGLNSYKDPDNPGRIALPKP
Strand | E-score
AAGCCAAG | -0.213
CAAGTTCG | -0.122
CTTGAATA | -0.0857
CCGTAATA | 0.283
ACACTGTG | -0.0813
GGAGGTTA | 0.0132
CTTCGAAA | -0.0684
ACGTGGGA | -0.186
AAAGGTCG | -0.116
ATGCTCGC | -0.0396
TAAACTGA | -0.0324
AAGATCGC | 0.0398
GATGAAAA | -0.0937
AACCGCAA | 0.123
ACATGAAG | -0.0519
CCCTAAAA | -0.114
CGAAATAC | -0.0622
ACCCGTAG | 0.289
ACGGGCGG | 0.426
ATGGGGTG | -0.0322
AAGCTACA | -0.0475
ATGTTCGC | 0.102

Series 3
Target: Prothrombin, mature alpha-thrombin (F2, Homo sapiens, UniProt P00734)
Method: aptamer microarray, sandwich
Molecule type: DNA with 2'F-ANA
Matrix: in vitro
Concentration: 200 nM
Setting: whole 15-mer aptamer, many near background
Added: Cy3 exosite-II aptamer, 400 nM
Direction: higher = stronger binding
Strand: GGTTGGTGTGGTTGG
Modification | mean fluorescence intensity
2'F-ANA at 1 2 8 10 12 15 | 71.3 a.u.
2'F-ANA at 1 2 3 5 7 12 | 144 a.u.
2'F-ANA at 1 5 8 9 13 15 | 46.8 a.u.
2'F-ANA at 4 5 9 11 12 13 14 15 | 46.3 a.u.
2'F-ANA at 2 3 4 8 9 10 12 | 321 a.u.
2'F-ANA at 1 2 3 4 6 7 8 12 | 350 a.u.
2'F-ANA at 1 2 3 7 10 12 13 15 | 90.3 a.u.
2'F-ANA at 5 9 11 15 | 61.4 a.u.
2'F-ANA at 1 6 7 8 10 11 13 | 52.5 a.u.
2'F-ANA at 1 2 4 6 9 11 12 14 | 52 a.u.
2'F-ANA at 3 4 9 10 12 | 379 a.u.
2'F-ANA at 1 2 3 4 5 6 7 9 10 11 13 14 15 | 62.1 a.u.
2'F-ANA at 1 2 4 5 8 11 12 13 14 | 46.2 a.u.
2'F-ANA at 2 5 6 7 10 | 61.2 a.u.
2'F-ANA at 1 4 5 9 13 | 50.1 a.u.
2'F-ANA at 1 2 3 5 12 14 15 | 46 a.u.
2'F-ANA at 1 2 3 4 5 8 10 11 12 13 15 | 52.1 a.u.
2'F-ANA at 2 5 6 7 9 10 12 14 | 47.5 a.u.
2'F-ANA at 2 4 5 6 7 9 13 14 | 49.3 a.u.
2'F-ANA at 2 3 4 8 9 11 14 | 361 a.u.
2'F-ANA at 2 3 7 10 11 14 | 292 a.u.
2'F-ANA at 1 2 4 5 7 9 11 15 | 49.3 a.u.
2'F-ANA at 1 3 4 5 6 10 12 14 15 | 46.1 a.u.
2'F-ANA at 2 3 6 9 11 12 13 15 | 718 a.u.
2'F-ANA at 1 2 4 6 8 10 12 14 15 | 50.8 a.u.

Series 4
Molecule: PhoQ, residues 284 288 289 292 302 303 DDMDFR
Method: Sort-seq
Measured: YFP reporter
Matrix: E. coli
Setting: PhoQ-PhoP variant library
Added: 10 µM Mg2+
Relative to: high Mg2+ state
Direction: higher = stronger signaling
target | fold induction
PhoP, residues 12 14 15 18 19 NYFRM (Escherichia coli, UniProt P23836) | 0.939
PhoP, residues 12 14 15 18 19 QYFSL (Escherichia coli, UniProt P23836) | 0.591
PhoP, residues 12 14 15 18 19 TQALL (Escherichia coli, UniProt P23836) | 0.627

Series 5
Target: Interferon regulatory factor 7, full length, phosphomimetic (IRF7, Homo sapiens, UniProt Q92985, residues 1-503, S471D/S472D/S475D/S476D/S477D/S483D/S484D/S487D)
Chain of UniProt Q92985 (whole entry, unmodified, looked up): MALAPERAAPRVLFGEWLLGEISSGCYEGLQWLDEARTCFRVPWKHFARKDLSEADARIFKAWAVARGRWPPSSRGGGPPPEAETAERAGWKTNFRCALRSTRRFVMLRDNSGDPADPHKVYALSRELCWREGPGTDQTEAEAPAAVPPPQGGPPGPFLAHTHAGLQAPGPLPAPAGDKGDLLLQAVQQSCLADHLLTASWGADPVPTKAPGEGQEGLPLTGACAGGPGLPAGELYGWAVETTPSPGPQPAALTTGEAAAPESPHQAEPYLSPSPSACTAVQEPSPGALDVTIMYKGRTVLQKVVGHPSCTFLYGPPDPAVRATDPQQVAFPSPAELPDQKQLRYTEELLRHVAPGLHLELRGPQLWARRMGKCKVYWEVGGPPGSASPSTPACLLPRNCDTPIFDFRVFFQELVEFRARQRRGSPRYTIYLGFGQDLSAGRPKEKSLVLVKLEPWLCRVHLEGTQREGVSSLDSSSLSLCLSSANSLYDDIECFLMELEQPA
Method: protein-binding microarray
Molecule type: double-stranded DNA, one strand shown
Matrix: in vitro
Concentration: 2200 nM top
Setting: 60-bp whole probe
Added: salmon DNA 0.4 mg/ml
Relative to: random background probes
Direction: higher = stronger binding
Constant ends, left off below: GCCTAGCAC … GTCTTGATTCGCTTGACGCTGCTG
Strand | fitted relative affinity
TTAGGTTTCGGTTTCGCTTAGTGCTAG | 14.9 z-score
TTAGGTATCGGTCTCGATTAGTGCTAG | 0.498 z-score
TCATTCCTAATTCTCTTACTGTGCTAG | 1.92 z-score
TACGGACTGGGGTATCGGGACGTGCTA | -0.54 z-score
TTAGGAGTGGGTTTCGGTTAGTGCTAG | 3.86 z-score
TCACCTTTCTCAACCTCACTGTGCTAG | 2.48 z-score
TTAGGACTGGGGACTCGGTTAGTGCTA | -0.589 z-score
TCAATTATAACACTCTTACTGTGCTAG | 0.536 z-score
TTAGGACTTGGACTGGGTTAGTGCTAG | -0.496 z-score
GACGATATCGGGTTACGAGACGTGCTA | 0.333 z-score
GACGATTTCAGTTCCTAGACGTGCTAG | 1.85 z-score
TCTGTTTTCTCCATGGAAGAGTGCTAG | 3 z-score
TCAGCTATGTTGTCCAGGACTGTGCTA | 0.441 z-score
TTAGAGTTCGGGTATCGATTAGTGCTA | 0.16 z-score
TTAGGACTGGGGTTTCGGTTGGTGCTA | 4.39 z-score
TTAGGTATCGGTTTCGGCTAGTGCTAG | 3.71 z-score
TCAACTTCCCAATTGTCACTGTGCTAG | 2.35 z-score
CACGGACTGCTTATCCTGACGTGCTAG | 0.246 z-score
GACGATATCTGTATCGAGACGTGCTAG | 0.472 z-score
